Experimental data of several laboratories.
Every numbered part comes from another study and shows a few of its results, in no order.

Series 1 — method: RNA Bind-n-Seq; molecule type: RNA; sample: in vitro; concentration: 100 nM; baseline: input RNA pool; direction: higher = stronger binding; endpoint: bound/input enrichment
Target: RING finger protein unkempt homolog, zinc fingers 1-6, SBP tag (UNK, Homo sapiens, UniProt Q9C0B0, residues 30-357)
UniProt Q9C0B0, sequence (30-357, looked up): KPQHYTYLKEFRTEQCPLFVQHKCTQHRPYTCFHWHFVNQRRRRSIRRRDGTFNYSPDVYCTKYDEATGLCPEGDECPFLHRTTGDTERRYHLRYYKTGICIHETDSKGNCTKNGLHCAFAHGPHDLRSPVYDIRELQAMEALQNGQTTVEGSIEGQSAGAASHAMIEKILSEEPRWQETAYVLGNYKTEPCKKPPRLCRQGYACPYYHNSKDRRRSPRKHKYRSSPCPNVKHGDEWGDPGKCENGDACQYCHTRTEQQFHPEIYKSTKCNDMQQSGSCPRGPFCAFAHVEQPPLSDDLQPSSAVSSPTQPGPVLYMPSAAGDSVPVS
Setting: RNA with constant flanks, vertebrate orthologous sites, ends assumed
All sequences stand within: GGGAGUUCUACAGUCCGACGAUC … CAACAGAGGAUUGAGCAUCA
UGUAUGUAGAGAAAAUUUUUCAUUGACCCCCCCCAUUGUGAAACUCCAUAGCAGUUUAUUUAGAAUCUUAAUUUUUCUAAUACAAGCUCACUGUAUUAGUCAUUUUAGCCCAUAAUUAAA: 3.18 ratio
UGCAUUAUUUGACCAGAGUUGAAGUGACAGAAUUUGAAGACAUCAAAUCAGGUUACAGAAUAGAUUUUUAUUUUGAUGAGAAUCCGUACUUUGAAAAUAAAGUUCUCUCCAAAGAGUUUC: 0.48 ratio
GCCAAAGGCCAAAUCCCCUCCCCCCUUCUACUGCUUCUACCAACUGGAAGCACAGAGAACUAGAAGUUCAUUUUGUUUUUAAAAAUAUAUGUUGAUUUCUUGUAACAUCCAAUAGGAAUG: 0.719 ratio
CUUAAAGUCAUUUUCCCACAUUUCCUGUAAAUAAUGGAUAAUCAUUUUUAUUUUAUUUUUAAGUACUGUUUUAACAAUGUGGAUAGACCAUAAAUGUACUUGCUGAAUUCAUUCAUGUUU: 0.269 ratio
AAGAUGGUAGUUGUACAUUAUUUCAUUUAGAAAAUAUAAAAAUUCAUUUUGUUUUGAAGCUAGGUGUUAAACUGGAGUAGCUAUAUUAUACCCCUAGAGAAUGGGGCAGUUGUGCCCUUC: 2.08 ratio
UCAGUCCCCUGGGCGGACGGAUUUUUUUUUUAGUGUCUUGAAAUUUAAACUCUGUGCUUGUAGGAGACUGUAACCUUUUUGUCUUUUUUUUUUUAAACAAAAACCUCCACCUCCAGUGGC: 1.23 ratio
CACGUCUGCAUAACUCCAGACCCUUCCUUCUCGCCCUUUGACCCCUCAUGCAUUUAACCAUAUUCACACGUCCACUUUUAUAAAUAGCAGGAUAAAUGCAAAGGAGCUCCCUGGGGCAUU: 0.509 ratio
GGCGUCAGGUGGGGGGAAUCCCAUGCCCUAGCCUUGCCUCCCUGCCCUGCCACCCGCUCCUAGUUAUUUUUUUUUAACCACCAUGUGAUUGAGGUCGGCGCUGUCUCCCCCGACCCGCUC: 1.74 ratio
CGUCUGCCUCAUUCUAAAAUUUACACAGUAGACCAUUUGUCAUUCAUGCUGUCCCACAAAUAGUUUUUGUUUACGAUUUAUGACAGGUUUAUGUUACUUCUAUUUGGAUUUCUAUAUUUC: 1.08 ratio
CCCUCUGAACCCCAUAUCUUCUGUGUCAUAGUGCAGAAGUGUUCUUUUCAAUUACGUUAUUAGUGGACUUGUUUUAAUUUUAGGGAAACUUUCAGUACAGAUACUGUGAGCAUAUUUGGA: 2.7 ratio
AAAACCCCGGUUUUAGAUGUGAUAUUUAGGCUUUCAUUCCAGUUUGUUUUGUCUUUUGUUUAGAUACCAAUCUUUUAAAUUCUUGCAUUUUAGUAAGAAAGCUACCUUUUUAUGGAUGUU: 0.751 ratio

Series 2 — method: aptamer microarray, sandwich; molecule type: DNA with 2'F-ANA; sample: in vitro; concentration: 200 nM; together with: Cy3 exosite-II aptamer, 400 nM; direction: higher = stronger binding; endpoint: mean fluorescence intensity; sequence: GGTTGGTGTGGTTGG
Target: Prothrombin, mature alpha-thrombin (F2, Homo sapiens, UniProt P00734)
Setting: whole 15-mer aptamer, many near background
2'F-ANA at 1 2 3 5 7 10 12 13: 48.8 a.u.
2'F-ANA at 2 4 5 6 7 11 14: 46.9 a.u.
2'F-ANA at 1 3 5 7 8 10 12 13: 49.1 a.u.
2'F-ANA at 1 2 3 4 5 8 9 10 12: 49.6 a.u.
2'F-ANA at 1 2 4 8 11 12 15: 278 a.u.
2'F-ANA at 2 3 7 8 9 12 13 15: 1040 a.u.
2'F-ANA at 2 7 8 10 12: 209 a.u.
2'F-ANA at 1 2 3 6 7 8 9 10 12 13 14: 55.8 a.u.
2'F-ANA at 1 5 6 8 12 13: 96 a.u.
2'F-ANA at 1 2 6 7 11 15: 117 a.u.
2'F-ANA at 1 2 3 4 5 6 10 11 13 14: 47.7 a.u.
2'F-ANA at 2 4 6 7 8 9 10 11 12 13 14: 63.3 a.u.
2'F-ANA at 1 2 3 4 7 9 11 12 14: 69.4 a.u.
2'F-ANA at 3 5 7 8 10 11 14 15: 48.5 a.u.
2'F-ANA at 1 5 7 9 10 11 13 14: 46.1 a.u.
2'F-ANA at 1 4 5 6 7 8 11 14 15: 109 a.u.
2'F-ANA at 5 6 8 10 11 12 14 15: 47.3 a.u.
2'F-ANA at 2 3 4 8 11 12 13 14: 378 a.u.
2'F-ANA at 1 2 3 7 11 12 13 14: 91 a.u.
2'F-ANA at 5 6 13 14 15: 46.3 a.u.
2'F-ANA at 3 5 7 8 10 12 14 15: 70.8 a.u.
2'F-ANA at 2 4 5 6 7 10 14 15: 265 a.u.
2'F-ANA at 1 3 4 5 6 7: 65.2 a.u.
2'F-ANA at 2 3 8 13: 732 a.u.
2'F-ANA at 1 3 4 11 12 14: 85.5 a.u.

Series 3 — method: protein binding microarray; molecule type: double-stranded DNA, one strand shown; sample: in vitro; concentration: not given; baseline: not given; direction: higher = stronger binding; endpoint: E-score
Target: Histone acetyltransferase KAT6A, winged helix 1, GST fusion (KAT6A, Homo sapiens, UniProt Q92794, residues 1-85)
Setting: 8-mer, flanks averaged, mean of 2 arrays, mostly near background
Residues (chain): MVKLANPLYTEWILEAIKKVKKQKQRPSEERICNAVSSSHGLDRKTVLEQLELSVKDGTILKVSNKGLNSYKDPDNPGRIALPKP
CGTGCCCC: 0.12
CCGCTAAA: 0.26
ATTTATAG: -0.192
GTTATCTA: -0.115
TCTGGACA: -0.145
AGCAAGAC: -0.027
ACGGAAGC: 0.195
AGGACTAG: -0.125
CATGCTTC: -0.0219
AATAATAC: -0.135
CAGCCGAA: 0.0126
GGCAAAAA: 0.0814
GCTAGAAA: -0.0365
GTATCCAC: -0.118
ACGGCGCT: 0.425
ATTCTGTC: -0.0431
GTACCATA: -0.0138
GCTGCCTA: -0.0525
GCTACTAA: 0.0889
CAACCATA: -0.167
GAAGGCGA: 0.14
AGTGATCG: -0.0253
ATGGAAAG: -0.18

Series 4 — method: universal PBM; molecule type: double-stranded DNA, one strand shown; sample: in vitro; concentration: 600 nM; direction: higher = stronger binding; endpoint: E-score
Target: Sal-like protein 4, full length isoform A (SALL4, Homo sapiens, UniProt Q9UJQ4, residues 1-1053)
UniProt Q9UJQ4, sequence (whole entry, looked up): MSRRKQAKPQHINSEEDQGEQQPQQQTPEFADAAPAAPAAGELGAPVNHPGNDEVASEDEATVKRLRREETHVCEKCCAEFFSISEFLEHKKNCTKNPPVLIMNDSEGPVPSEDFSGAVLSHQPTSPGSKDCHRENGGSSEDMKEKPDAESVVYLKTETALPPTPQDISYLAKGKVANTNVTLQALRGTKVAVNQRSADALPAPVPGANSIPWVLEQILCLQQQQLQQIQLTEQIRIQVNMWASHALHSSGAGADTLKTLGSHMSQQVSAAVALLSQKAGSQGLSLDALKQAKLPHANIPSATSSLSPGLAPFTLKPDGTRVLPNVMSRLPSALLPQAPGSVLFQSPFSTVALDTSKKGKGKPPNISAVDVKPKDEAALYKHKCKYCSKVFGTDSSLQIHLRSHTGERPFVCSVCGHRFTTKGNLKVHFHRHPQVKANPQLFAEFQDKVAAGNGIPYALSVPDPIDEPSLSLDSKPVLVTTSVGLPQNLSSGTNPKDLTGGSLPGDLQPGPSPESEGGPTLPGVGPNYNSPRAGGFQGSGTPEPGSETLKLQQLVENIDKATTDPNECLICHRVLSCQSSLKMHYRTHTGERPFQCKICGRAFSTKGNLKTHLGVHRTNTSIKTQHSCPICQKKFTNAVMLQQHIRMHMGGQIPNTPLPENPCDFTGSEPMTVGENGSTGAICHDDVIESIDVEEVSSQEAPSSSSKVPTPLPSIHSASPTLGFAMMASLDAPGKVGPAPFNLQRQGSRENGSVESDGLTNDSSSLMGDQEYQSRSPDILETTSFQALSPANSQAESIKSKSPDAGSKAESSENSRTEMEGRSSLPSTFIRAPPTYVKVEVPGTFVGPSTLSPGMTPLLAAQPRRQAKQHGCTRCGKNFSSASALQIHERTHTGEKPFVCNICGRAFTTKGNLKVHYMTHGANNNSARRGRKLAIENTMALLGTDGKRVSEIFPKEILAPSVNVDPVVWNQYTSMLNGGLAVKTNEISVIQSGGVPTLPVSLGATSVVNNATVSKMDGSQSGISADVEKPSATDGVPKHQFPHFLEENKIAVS
Setting: 8-mer, flanks averaged, mean of replicates
CTTACGTC: -0.195
CCTGAGAC: -0.211
AAGTCCGC: -0.219
ATTTTTCG: 0.307
GTGCTTCA: 0.0265
TTAACTAA: 0.244
ATTGAACC: 0.0854
ATTATCCC: 0.208
AGCCATCG: -0.131
CCCACAGC: -0.187
CCACCTCG: -0.258
GCGCAAGC: -0.268
AACAGGCT: 0.0338
GAAGTAAA: 0.207
AACGAATA: 0.154
GTAGACAA: 0.147
AACTACAA: 0.115
CGGCAGAG: -0.306
CTCGTCTC: -0.15
GGAACACC: -0.231
CGTCGCAG: -0.298
AGGGGCTC: -0.345
ATCTACAG: 0.134
AGCGGGTG: -0.248

Series 5 — method: RNA Bind-n-Seq; molecule type: RNA; sample: in vitro; concentration: 365 nM; baseline: no-protein control; direction: higher = stronger binding; endpoint: RBNS enrichment (R)
Target: RNA binding protein fox-1 homolog 2, RRM domain, GST-SBP tag (RBFOX2, Homo sapiens, UniProt O43251-10, residues 100-194)
Setting: natural RNA segment, single round, ends assumed
All sequences stand within: GGGAGUUCUACAGUCCGACGAUC … UGGAAUUCUCGGGUGCCAA
Construct (chain): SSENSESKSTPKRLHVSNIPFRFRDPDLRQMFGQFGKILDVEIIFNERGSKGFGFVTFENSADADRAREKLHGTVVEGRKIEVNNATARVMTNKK
GACAGGUUACUUGGUGUAUCUUCUGUUAAAGAGGAUUGCACGAGUGUGUUUUCCUCACACACUUUGAUUUGGAGAAUUGGUGCUAGUUGGCAAUAGAUAACUCAGCGUAG: 0.3
AAAAAGCACAGAGAAAUGUUUAACUGUUUGACUCUUAUGAUACUUCUUGGAAACUAUGACAUCAAAGAUAGACUUUUGCCUAAGUGGCUUAGCUGGGUCUUUCAUAGCCA: 0.336
ACGGUCUGGCUCUGUCGCCUAAGCUGGAGUGUGGUGGCACGAUCACAGCUCACUGCAGCCUCCAUCUCCUAGGCUCAAGCCAUUUUCCCACCUCAGCCUCCCGAGUAGCU: 0.864
GAACAGCUCGGGCCACUCUUCUGAAGGCCAACGUGGAGGAAAGGGAGCAGCCAGCCAUUUGGGAGAAGAUCUCAAGGAUCCAGACUCUCAUUCCUUUCCUCUGGCCCAGU: 0.269
GGGGAGGAGGAGCUGAGUCCUGACUCUGUGCUCCUGUUAGGCAGGGCCUCUGGGAAGAGGAGAAAUGUAGCCUGAGCUGGGGCUGGAGGCUGGUCACCGCAUAUCCUUGC: 0.699
GCCAGCCAUGCAGGCUCCAUCAGGCACCGUGUCCCCAGGGGUGGGCAUGAACCAGUGCGCCACAUGUGAUUUUGAAAUAAACACCUCAACUAGCACUAAUUUUAUUUGCA: 4.07
UGUGUGGCUCAAGGGUCAUGUAUAGUUUGUGGAAUUUUUCCAAUUAAAUGUCUUGCUUACAGUGGUGUUGCCCCGACUCCAGAUCAGCCUGGGCCACCUUGGGAAGCCAU: 0.385
UAUGACAUCUAUUUUGGAAAAUGUUUGCCCUGCUGUACCUCAUUUUUAGGAGGUGUGCAUGGAUGCAAUAUAUGAAAAUGGGACAUUCUGGAACUGCUGGUCAGGGGACU: 0.575
AACCUCCCAUCUAUCCCCAUUCCUGAGACAGGAGUUACAGUCCCUUUUGGCCCUCACAUCCAAUAAAAGACUGAUACCACUGGAGUGGCUGGCUUUUAAUUCCCCUGGGC: 0.381
CCAUCAUUUGCAGUUUGCAUGUGGGGAAACCAAAGCCCUAAGAAACAACAGUUCCUGGCCCAAAAAAUCCAUAGAAAGAGGUAACUAGUGGCAGAUUUGGGGCGCCAACC: 1.07
CUUCUGACGUCAUGUAGACAGAGGAGCAUUGGAGUCAUAAAGUCUGUAGUCUUAACUCUAACCCUCUGGUGCUGCUCUCUGAGCAGCAGUAUUUACAAUAACCGAGCUAU: 0.399
ACUCCGGGAGCCCAGCCCCCAUCGGGGGCUUCCUGUACCUCCUUUUGCCUGGCUCUGCUCUUUAGACUCCAGAUCCCUACCCCUCAGCAACUAGCUCCCCUGUCGGCCAG: 0.577

Excerpt of the above (series 3):
GTTATCTA: -0.115
TCTGGACA: -0.145
AGTGATCG: -0.0253
ATGGAAAG: -0.18
GTACCATA: -0.0138
AGCAAGAC: -0.027
GTATCCAC: -0.118
